Experimental data collected from several papers.
Each numbered part is a random draw from the data of one study; scales do not carry over between parts. Substitutions count along the parent as printed.

Set 1
Target: Centromere-binding protein 1, full length, His-tagged (CBF1, Saccharomyces cerevisiae, UniProt P17106, residues 1-351)
Chain of UniProt P17106 (whole entry, looked up): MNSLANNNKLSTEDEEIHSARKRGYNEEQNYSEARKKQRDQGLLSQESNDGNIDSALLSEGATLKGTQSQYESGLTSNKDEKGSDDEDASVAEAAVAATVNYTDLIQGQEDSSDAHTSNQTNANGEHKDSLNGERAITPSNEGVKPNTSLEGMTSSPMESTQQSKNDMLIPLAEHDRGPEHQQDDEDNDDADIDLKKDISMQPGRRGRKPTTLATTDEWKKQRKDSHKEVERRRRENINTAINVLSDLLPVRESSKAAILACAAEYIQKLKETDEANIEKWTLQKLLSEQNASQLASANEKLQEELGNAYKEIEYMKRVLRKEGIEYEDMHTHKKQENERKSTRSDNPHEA
Method: competition protein-binding microarray
Molecule type: double-stranded DNA, one strand shown
Matrix: in vitro
Concentration: 2 µM
Notes: whole 60-bp probe, lowest competitor level
Added: Pho4 competitor, 0.05 µM
Reading: higher = stronger binding
All sequences stand within: … GTCTTGATTCGCTTGACGCTGCTG
| Oligonucleotide | fluorescence intensity [a.u.] |
| --- | --- |
| ATTCTAACCCTGATGAACGTGTCGGTCAACTTACCC | 65.9 |
| CTTCTGTAAATTTGTCAGGTGGGTGGACGCGCCCCG | 148 |
| CTAACGAAGGTTTGAGAAGTGGGTGACAAGCCAAGT | 65.7 |
| TTCTAAATCTGCAATAACGTGGCAAGTATTCTGATC | 153 |
| ACTTATCTGTCGAATCTCGTGACGGCACCTCCGACA | 542 |
| TTGCATGTAAGCGTTACTAATATTCCGCTTTATTTT | 61.4 |
| AAAGCGGTAATTTGAGTGGTGGGTGCAGATATCTAT | 81.1 |
| CGGGGTTAAGTTTGAGAAGTGGGTGGCTTGCAGCAG | 62.3 |
| TACGAGCAAATTTTGCACGTATAGGGCGCCTATAAC | 86.9 |
| CCGCTTGTGCCTACCCACGTGGTGAGCAATCTTCTC | 1170 |
| TAAAATGAAAAATGATCCGTGATGGGAAAAGTTATA | 110 |
| CTCTTAGTTTGGCATCTCATGACGCGGCACACATTC | 77.3 |
| CTTCCTTTGTCCTGGTAGGTGTGAGCTCTTGAGAGT | 70.9 |
| AAAGCGGTAATTTGCTCGGTGGGTGCAGATATCTAT | 81.2 |
| CGTCCTAGTGATTGCTGTGTGGGTGCCATGAGGAAG | 96.7 |
| AAAAATGTATACAGATCAGTCTGTATATAAATCATG | 186 |
| CTTCTGTAAATTTGCGCAGTGGGTGGACGCGCCCCG | 79.1 |
| CTTTCCCGATCTTGCAGAGTGGGTGTAGCACATTTG | 66.2 |
| TTCTTTACCGTTTTGCACGTGCGATGCGAAAAGTAT | 1550 |
| CACGATTGCTATCGCAGTAATAGCCTAACCTCCATC | 62.4 |
| TATTTAACTCCATTTCACGTGATGGGTTTGAAAGAA | 3040 |
| CATACCCAACCTTGTCACCCTACTTAAGATATTTGT | 64.9 |
| CGGGCTGATAACTAGATGGTGTGTTCGGGCAGTATA | 54.3 |
| CTTTCCCGATCTTGTCACTACACTTTAGCACATTTG | 81.1 |

Set 2
Target: ABI1, truncated, D143A, DHFR fusion (Arabidopsis thaliana)
Method: DHFR PCA, deep sequencing
Matrix: yeast
Notes: methotrexate growth selection, single substitutions
Added: (+)-ABA 710 µM
Relative to: wild-type fitted maximum
Reading: higher = stronger binding
Starting sequence: PYL1, truncated, DHFR fusion (Arabidopsis thaliana); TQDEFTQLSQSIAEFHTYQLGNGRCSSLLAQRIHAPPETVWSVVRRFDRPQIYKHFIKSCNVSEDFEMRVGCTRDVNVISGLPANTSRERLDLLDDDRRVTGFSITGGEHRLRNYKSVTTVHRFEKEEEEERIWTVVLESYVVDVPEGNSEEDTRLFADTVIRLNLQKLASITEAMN
| Substitution | relative binding score [%] |
| --- | --- |
| E64S | 99.8 |
| V136C | 104 |
| V100N | 37.6 |
| T101A | 97.7 |
| E147M | 94.1 |
| L94H | 104 |
| R69H | 105 |
| E64Y | 97.5 |
| V161I | 101 |
| L112Q | 4.34 |
| S59R | 101 |
| D97F | 106 |
| T6I | 99.4 |
| T86W | 106 |
| T154V | 102 |
| E125S | 106 |
| A158H | 70.9 |

Set 3
Target: CCNB1, cyclin fold, Cln2 fusion (human)
Method: yeast growth competition, sequencing
Matrix: yeast
Notes: strong parent motif
Relative to: not given
Reading: higher = stronger binding
Starting sequence: E2F1 docking peptide (human); PPVKRRLDFETDH; partner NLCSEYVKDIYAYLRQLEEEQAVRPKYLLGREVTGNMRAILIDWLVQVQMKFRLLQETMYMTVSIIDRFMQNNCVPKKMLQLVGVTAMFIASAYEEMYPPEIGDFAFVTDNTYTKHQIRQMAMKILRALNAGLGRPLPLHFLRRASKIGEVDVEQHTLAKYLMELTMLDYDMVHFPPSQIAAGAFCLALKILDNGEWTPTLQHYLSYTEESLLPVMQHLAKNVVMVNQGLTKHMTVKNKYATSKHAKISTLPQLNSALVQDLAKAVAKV
| Substitution | normalised enrichment score |
| --- | --- |
| D8Y | 4.82 |
| K4P | 2.68 |
| E10H | 4.34 |
| R5W | 0.525 |
| P2V | 4.71 |
| E10F | 4.29 |
| T11Y | 5.06 |
| F9V | 0.476 |
| T11D | 5.63 |
| T11G | 5.17 |
| L7N | 0.0962 |
| P2W | 3.33 |
| T11E | 5.19 |
| D8T | 4.57 |
| R6M | 3.91 |
| L7D | -0.176 |
| E10Q | 4.32 |
| D8F | 5.28 |
| R5M | 3.35 |
| L7Y | 0.192 |
| D8R | 3.51 |
| L7V | 0.84 |
| E10W | 3.61 |
| E10G | 5.23 |
| D12V | 5.12 |

Set 4
Target: Ras GTPase-activating protein-binding protein 1, full length (G3BP1, Homo sapiens, UniProt Q13283)
Chain of UniProt Q13283 (whole entry, looked up): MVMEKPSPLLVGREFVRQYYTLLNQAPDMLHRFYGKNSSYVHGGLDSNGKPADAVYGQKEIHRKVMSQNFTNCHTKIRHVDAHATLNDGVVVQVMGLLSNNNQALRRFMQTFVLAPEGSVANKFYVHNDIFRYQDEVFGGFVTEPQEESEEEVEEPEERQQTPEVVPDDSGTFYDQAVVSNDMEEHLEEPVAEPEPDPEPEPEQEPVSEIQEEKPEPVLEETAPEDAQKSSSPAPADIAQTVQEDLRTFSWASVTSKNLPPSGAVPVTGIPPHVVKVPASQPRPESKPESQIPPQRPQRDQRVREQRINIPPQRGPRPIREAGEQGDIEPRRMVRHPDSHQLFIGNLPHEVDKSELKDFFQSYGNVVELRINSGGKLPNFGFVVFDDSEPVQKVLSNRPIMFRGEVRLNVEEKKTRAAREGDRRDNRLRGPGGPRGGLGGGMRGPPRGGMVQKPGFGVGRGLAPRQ
Method: RNA Bind-n-Seq
Molecule type: RNA
Matrix: in vitro
Concentration: 200 nM
Notes: whole 134-nt RNA, ends assumed
Added: 150 mM KCl
Relative to: input library
Reading: higher = stronger binding
All sequences stand within: GGGAGUUCUACAGUCCGACGAUC … UGGAAUUCUCGGGUGUCAAGG
| Oligonucleotide | log2 enrichment |
| --- | --- |
| ACCAUGCAGGUGGGCAUCUUUGGGAAGUGGGGCAAGGGGGGGAUAGGGAGGGGGGUAACACUUUGGGAACCGGUGGUCCCAGGUCGUUUC | 0.806 |
| GCAGGAAGUAAAAACAAAUGGAAAUGCUUCCGAUAGUGGCAGGGGUGGGGGUUGCUAAGGAAAGGGUGGGAUGGGAGUGGGUAAAGAGUU | 1.03 |
| UCAAGUCCUGUGCUACACAUCGUAUGUACCGAAUCGGAAAAAAAGGAGGUUUGGAAAGUAUUAUGUUACGCCGUUCGGAUCUGCACUUCC | -1.33 |
| AAGUCCUGUGCUACACAUCGUAUGUACCGAAUCGGGAAAAAAAGGGUGGGAAAGGGAAAGUAUUAUGUUACGCCGUUCGGAUCUGCACUU | 0.164 |
| CAAGUCCUGUGCUACACAUCGUAUGUACCGAAUCGGGCCCGGCCCGGGGCCCGGGGAAAGUAUUAUGUUACGCCGUUCGGAUCUGCACUU | -0.763 |
| AAGUCCUGUGCUACACAUCGUAUGUACCGAAUCGGGUGGGAAAGGGAAAAAAAGGGAAAGUAUUAUGUUACGCCGUUCGGAUCUGCACUU | -0.134 |
| CUCAAGUCCUGUGCUACACAUCGUAUGUACCGAAUCGGAAAGGAAAGGUUUGGAAAGUAUUAUGUUACGCCGUUCGGAUCUGCACUUCCA | -0.787 |
| CCUGUGCUACACAUCGUAUGUACCGAAUCGGGCCCCCCGGGGCCCCCCGGGCCCCCCGGGGAAAGUAUUAUGUUACGCCGUUCGGAUCUG | -0.848 |
| CCUCAAGUCCUGUGCUACACAUCGUAUGUACCGAAUCGGUUGGGUUGGUUGGAAAGUAUUAUGUUACGCCGUUCGGAUCUGCACUUCCAG | 0.18 |
| CACAGACAACACGCACCCACACAGACACGGAGGGAAGGGGUUGGGAUGGGGACAGGGUGCACAGCAGGGCGGGGUAGGACCCCAGCCCCU | 1.73 |
| GCAGGAAGUAAAAACAAAUGGAAAUGCUUCGGAUAGUUGCAGGGGUGGGGGUUGCUAAGGAAAGGGUGGGAUGGGAGUGGGUAAAGAGUU | 0.748 |
| AGUCCUGUGCUACACAUCGUAUGUACCGAAUCAAACCCAAACCCCCAAACCCCCAAAAAAGUAUUAUGUUACGCCGUUCGGAUCUGCACU | -0.564 |
| UGGCCCUGGUGGCAUGCGGGGAGGAAGAGGUGGCCUCAUGGAUCGUGGUCGUCCCGGUGGAAUGUUCAGAGGUGGCCGUGGUGGAGACAG | 0.155 |
| AGUCCUGUGCUACACAUCGUAUGUACCGAAUCAAACCCCCAAAUUUUUAAACCCAAAAAAGUAUUAUGUUACGCCGUUCGGAUCUGCACU | -0.232 |

Set 5
Target: CREB3L4, bZIP domain (human)
Method: DHFR protein complementation
Matrix: yeast
Notes: single substitutions, most at no-binding floor
Relative to: wild-type JUN-FOS pair
Reading: higher = stronger binding
Starting sequence: JUN, bZIP domain (human); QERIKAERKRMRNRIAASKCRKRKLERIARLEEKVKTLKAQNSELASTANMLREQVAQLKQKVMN; partner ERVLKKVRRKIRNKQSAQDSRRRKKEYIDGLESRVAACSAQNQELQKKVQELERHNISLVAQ
| Substitution | binding fitness [natural log] |
| --- | --- |
| A57N | -1.25 |
| L45C | -1.43 |
| E33M | -1.55 |
| E32S | -1.38 |
| S43K | -1.41 |
| E54R | -1.46 |
| L38Y | -1.58 |
| V35Y | -1.53 |
| R53A | -1.49 |
| T48N | -1.45 |
| L38E | -1.5 |
| K34A | -1.35 |
| R30M | -1.49 |
| E44R | -1.39 |
| A29V | -1.54 |
| K36G | -1.43 |
| T48R | -1.25 |

Excerpt of the above (set 3):
| Substitution | normalised enrichment score |
| --- | --- |
| R5W | 0.525 |
| P2V | 4.71 |
| E10F | 4.29 |
| T11Y | 5.06 |
| F9V | 0.476 |
